Measured values gathered from unrelated publications.
Compare with care: the assays were run in different laboratories. ± marks the error that the study gave.

Sequences of proteins named here, by UniProt entry; tags and fusion partners are left off.
UniProt P48730, whole entry: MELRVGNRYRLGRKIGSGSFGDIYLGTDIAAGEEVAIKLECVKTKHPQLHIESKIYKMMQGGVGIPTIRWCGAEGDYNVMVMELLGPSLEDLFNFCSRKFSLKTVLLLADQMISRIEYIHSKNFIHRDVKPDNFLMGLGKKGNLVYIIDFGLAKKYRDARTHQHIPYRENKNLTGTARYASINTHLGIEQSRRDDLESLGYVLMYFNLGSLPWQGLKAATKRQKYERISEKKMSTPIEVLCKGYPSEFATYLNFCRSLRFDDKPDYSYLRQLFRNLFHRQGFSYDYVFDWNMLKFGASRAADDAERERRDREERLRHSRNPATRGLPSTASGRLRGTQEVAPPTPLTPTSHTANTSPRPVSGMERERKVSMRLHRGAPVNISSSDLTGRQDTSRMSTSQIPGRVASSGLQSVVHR
UniProt Q9H093, whole entry: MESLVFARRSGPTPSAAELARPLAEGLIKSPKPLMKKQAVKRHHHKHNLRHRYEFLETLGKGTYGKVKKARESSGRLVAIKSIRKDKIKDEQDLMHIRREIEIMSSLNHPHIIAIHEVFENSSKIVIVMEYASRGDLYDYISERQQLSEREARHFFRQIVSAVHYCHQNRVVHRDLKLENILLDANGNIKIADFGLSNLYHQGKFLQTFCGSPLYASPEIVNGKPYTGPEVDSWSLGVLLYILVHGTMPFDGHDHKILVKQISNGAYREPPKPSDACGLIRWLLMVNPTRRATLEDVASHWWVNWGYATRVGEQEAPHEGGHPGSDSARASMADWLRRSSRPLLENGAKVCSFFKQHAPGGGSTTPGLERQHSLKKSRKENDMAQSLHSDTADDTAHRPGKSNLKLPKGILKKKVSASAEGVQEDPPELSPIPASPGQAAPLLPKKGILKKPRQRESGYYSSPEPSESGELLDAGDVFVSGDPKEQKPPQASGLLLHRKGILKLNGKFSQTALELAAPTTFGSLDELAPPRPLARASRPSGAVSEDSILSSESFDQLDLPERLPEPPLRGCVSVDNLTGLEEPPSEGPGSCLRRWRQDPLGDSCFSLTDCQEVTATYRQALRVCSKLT

| Molecule | target or system | test | conditions | how to read | quantity | value |
| --- | --- | --- | --- | --- | --- | --- |
| Cc1ccc(-c2csc(N(CC3OC(n4c[n+](Cc5ccccc5)c5c(=O)[nH]c(NC(=O)c6ccccc6)nc54)C4OC(C)(C)OC34)P(=O)([O-])O)n2)cc1 (centres unmarked) | MCF7 | cell growth, SRB | – | – | IC50 | > 100 µM |
| COc1cc(S(=O)(=O)F)cc(OC)c1OC | HCT-15 | cell viability, CellTiter-Glo | 72 h | – | IC50 | > 1.5 µM |
| C(CCCCCN1COOC2(CCCCCC2)OOC2(CCCCCC2)OOC1)CCCCN1COOC2(CCCCCC2)OOC2(CCCCCC2)OOC1 | Jurkat | cytotoxicity, 7-AAD flow cytometry | – | – | IC50 | 1.56 ± 0.16 µM |
| cisplatin | H1975 | viability, CellTiter-Glo | 72 h | – | IC50 | 62 µM |
| Cc1cc(N(CCCl)CCCl)ccc1C=O | SN12K1 | cell growth, inhibitor, MTT | – | – | IC50 | 10.4 µg/mL |
| C1CCC2(C1)OOCOCOOC1(CCCC1)OO2 | Jurkat | cytotoxicity, 7-AAD flow cytometry | – | – | IC50 | 6.33 ± 0.12 µM |
| fluorouracil | NCM460 | cell viability, MTS | – | – | IC50 | 44.6 ± 4.69 µM |
| CC1CCC2(CC1)OOCOCOOC1(CCC(C)CC1)OO2 (centres unmarked) | Jurkat | cytotoxicity, 7-AAD flow cytometry | – | – | IC50 | 7.62 ± 0.14 µM |
| Cc1cc(N(CCCl)CCCl)ccc1C(=O)O | SN12K1 | cell growth, inhibitor, MTT | – | – | IC50 | 9.35 µg/mL |
| CC#C/C(=N\OC[C@H]1COCCN1)c1ccc2ncnc(Nc3ccc(OCc4cccc(F)c4)c(Cl)c3)c2c1 | Casein kinase I isoform delta (CSNK1D, Homo sapiens, UniProt P48730) | kinase activity | 10 µM | – | inhibition | -10.7% |
| CCN1CCN(Cc2ccc(NC(=O)c3ccc(C)c(/C=C/c4cnc5[nH]ccc5c4OC)c3)cc2C(F)(F)F)CC1 | NUAK family SNF1-like kinase 2 (NUAK2, Homo sapiens, UniProt Q9H093) | inhibitor | 5 µM | reference: no inhibitor | log2 fold change | -0.166 |
